Assay results from different studies.
A part holds a random share of what one study measured.

Block 1
Target: RING finger protein unkempt homolog, zinc fingers 1-6, GST-SBP tag (UNK, Homo sapiens, UniProt Q9C0B0, residues 30-357)
Method: RNA Bind-n-Seq
Molecule type: RNA
Medium: in vitro
Tested at: not given
Notes: RNA with constant flanks, ends assumed
Baseline: input RNA pool
Reading: higher = stronger binding
Residues (chain): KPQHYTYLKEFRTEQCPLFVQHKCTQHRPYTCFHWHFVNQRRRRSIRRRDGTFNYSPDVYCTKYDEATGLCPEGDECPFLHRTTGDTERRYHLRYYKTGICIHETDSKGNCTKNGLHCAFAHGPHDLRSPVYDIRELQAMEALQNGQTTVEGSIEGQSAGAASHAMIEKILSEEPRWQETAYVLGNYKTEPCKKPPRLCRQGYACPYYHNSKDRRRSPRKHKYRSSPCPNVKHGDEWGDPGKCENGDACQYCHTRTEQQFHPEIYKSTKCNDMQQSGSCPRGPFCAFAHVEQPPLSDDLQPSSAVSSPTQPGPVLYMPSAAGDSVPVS
| Sequence | bound/input enrichment |
| --- | --- |
| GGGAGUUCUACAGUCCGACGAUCAAUUAUUUUUCCUUGCUCAUGGGCUGGAUGGGAAUUAUCCCUCCUCCGGUGCAGUGUCAUCACCGACUAUCCAUGACAGAUGAUAGCAAGAAGCAAGAUCUUAGUUCAUCAUUGACAGAUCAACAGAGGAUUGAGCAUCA | 0.201 ratio |
| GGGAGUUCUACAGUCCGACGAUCGAUCGAACCUGGUCUUUGUGGAAGAGACAGGAUGCGACUUCCUCGGAGUUUGAUCCAUUUUUCCGUCUCUUUGCAUUCACCAACAAAAUUACUUCUGUGCAUAGUAGAAUCAUUUGGUCUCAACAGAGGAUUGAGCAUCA | 0.809 ratio |
| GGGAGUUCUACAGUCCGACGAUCGGAGGUCAGGUUCCUGACACAAACUACAUAUUUAUGGGUGAUUUUGUAGACAGAGGUUACUACCGUUUGGAGACCUUCACUUAUCUUCUUGCACUAAAGGCUAAGUGGCCUGACCGUAUUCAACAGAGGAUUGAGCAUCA | 0.212 ratio |
| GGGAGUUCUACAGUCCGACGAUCAGGAGUGUACGGCUAGUCAGAGACAAAGACACAGAUAAAUUUAAAGGAUUCUGCUAUGCCGAAUUCGAUGAAGUGGAUUCCCUUAAGGAAGCCUUGACAUACGAUGGUGCACUGUUGGGCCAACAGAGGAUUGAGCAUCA | 0.249 ratio |
| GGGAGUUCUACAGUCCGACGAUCCCUGAAGAAAACCCUGGGUCACCUUCUAGAGAAUCACCUCUUUCAGCACCUUCAGAUCAUUCUCCGAUCCAAGGUGUAAUACCUUUUCAGUGUAUCAUGGGUGGUCUUGUUCAUCCCCUUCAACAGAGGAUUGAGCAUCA | 0.0878 ratio |
| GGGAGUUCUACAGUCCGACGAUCGAAGCACAGCGAUGGCAGGCAAGGCUGAUUUGGAGAGGAAGGUGAUGUUGGCAUUUCUCAACCCGGAAUGCACAGAGUACCACUCAAUGGUGAGCUUGCAAGAUUUGCACAAACUCAUGGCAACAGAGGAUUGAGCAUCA | 0.149 ratio |
| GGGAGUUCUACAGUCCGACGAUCCUCCGAGCUGCUAAUAUUCUUGUAGGAGAAAAUCUUAUAUGCAAAAUAGCAGAUUUUGGCUCCGCAAGAUUAAUUGAAGACAAUGAAUACACGGCAAGACAAGGUGCAAAAUUUCCAAUCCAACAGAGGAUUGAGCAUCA | 0.221 ratio |
| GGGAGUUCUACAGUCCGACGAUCAUUGGGACCAGCUCUCUGAAUAGAAAUAGUAGUAAAAAAACCAAGCAAAAUGAUAUUUGUACCGAAAAAACAGAAGCUAAAUCAUGUAAAGUAAACGCUGCCAGUGUUCCAGGCCCUAAACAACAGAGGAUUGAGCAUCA | 10.7 ratio |

Block 2
Target: Centromere-binding protein 1, full length, N-terminal tag (CBF1, Saccharomyces cerevisiae, UniProt P17106, residues 1-351)
Sequence of UniProt P17106 (whole entry, looked up): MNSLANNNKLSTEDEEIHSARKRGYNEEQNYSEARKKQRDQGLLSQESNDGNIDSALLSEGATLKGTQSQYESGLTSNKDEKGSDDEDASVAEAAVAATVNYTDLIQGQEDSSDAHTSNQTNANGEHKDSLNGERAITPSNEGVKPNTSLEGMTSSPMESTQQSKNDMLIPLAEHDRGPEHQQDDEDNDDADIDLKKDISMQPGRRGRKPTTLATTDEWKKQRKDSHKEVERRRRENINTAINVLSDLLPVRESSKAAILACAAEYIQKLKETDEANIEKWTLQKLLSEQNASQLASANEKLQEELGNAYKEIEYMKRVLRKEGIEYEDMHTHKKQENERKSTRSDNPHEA
Method: protein-binding microarray
Molecule type: double-stranded DNA, one strand shown
Medium: in vitro
Tested at: 0.8 µM
Notes: whole 60-bp probe, no competitor
Reading: higher = stronger binding
| Sequence | fluorescence intensity [a.u.] |
| --- | --- |
| GAACATATACAGTGTAACGTGGGGACATTAATTTAGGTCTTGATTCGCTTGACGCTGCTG | 600 |
| CTAGAGATAAAAATAAACGTGGTGGCTCCCGAGTTCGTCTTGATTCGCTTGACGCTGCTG | 550 |
| CCTAACTACTATATACGCGTGGTATAGCTTCGTACAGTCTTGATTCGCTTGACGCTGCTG | 557 |
| GAAGAAGTAATCATTATCGTGGTGCACCAGCAGTAGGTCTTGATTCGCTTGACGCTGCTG | 490 |
| TGTACGAAGCTATGATAGGTGATTATAGTAGTTAGGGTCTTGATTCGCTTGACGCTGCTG | 488 |
| CTAAGTATACCTTGTGACCTGAAGATTTACTTTTTCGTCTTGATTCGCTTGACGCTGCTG | 1040 |
| CTATGTGGTATTGAGCACGCGGTACTAGAAGGATTCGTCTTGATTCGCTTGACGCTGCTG | 663 |
| CCTAACTACTATAGACACGCGATATAGCTTCGTACAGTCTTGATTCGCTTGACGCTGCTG | 565 |
| TGTACGAAGCTATATGGGGTGACTATAGTAGTTAGGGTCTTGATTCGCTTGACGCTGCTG | 539 |
| CCTAACTACTATAAACGCACCACATAGCTTCGTACAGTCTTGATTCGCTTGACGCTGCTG | 539 |
| CCTAACTACTATAAGCGCATGATATAGCTTCGTACAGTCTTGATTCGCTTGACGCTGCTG | 554 |
| GAATAATGTACTAGTAACGTGAATACTAGTCCATAGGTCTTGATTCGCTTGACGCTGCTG | 696 |
| GAACTCCGATTTTGTCACGCAGCGTTCGTTTTTTAGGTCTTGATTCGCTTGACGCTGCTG | 697 |
| TGTACGAAGCTATGTCACATTCGTATAGTAGTTAGGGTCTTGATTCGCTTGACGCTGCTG | 549 |
| CTATGAGAACGTTATCACGCGGATTATTTAGTTTTCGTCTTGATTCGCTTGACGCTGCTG | 907 |
| GAACCAATTTGTAGTCATGACGACATAGCTGGGTAGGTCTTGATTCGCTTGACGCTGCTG | 580 |
| CTATTTTGATTACTAGGCATGATGTATGGAGGATTCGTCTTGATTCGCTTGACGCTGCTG | 560 |
| CCTAACTACTATAATCACACTTTATAGCTTCGTACAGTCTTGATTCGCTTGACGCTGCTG | 543 |
| GAAGAATGAGAAAAACCGATCACGTACATCGATTAGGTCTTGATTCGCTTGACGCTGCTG | 1100 |
| CTAGTGGGTAAATGTCTCGTGCATTAAGACAGGTTCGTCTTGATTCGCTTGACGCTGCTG | 729 |
| CTATTGTGTGAGTTCCACGTGCGGATGACTTAATTCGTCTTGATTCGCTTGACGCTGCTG | 2180 |
| CTAAGCGTCAATGCGCACGTAATGGCTTCGAAGTTCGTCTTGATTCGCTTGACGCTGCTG | 494 |
| CTATGTAAAAACACCCACGAGTGCATACCACTTTTCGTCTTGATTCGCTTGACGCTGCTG | 572 |
| CCTAACTACTATATTCATGTGGTATAGCTTCGTACAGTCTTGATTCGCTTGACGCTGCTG | 578 |
| CTAGAAAAGAATTAAAACGTGAAATTTCCTTTTTTCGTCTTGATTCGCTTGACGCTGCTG | 548 |

Block 3
Target: Prothrombin, mature alpha-thrombin (F2, Homo sapiens, UniProt P00734)
Method: aptamer microarray, sandwich
Molecule type: DNA with 2'F-ANA
Medium: in vitro
Tested at: 200 nM
Notes: whole 15-mer aptamer, many near background
Together with: Cy3 exosite-II aptamer, 400 nM
Reading: higher = stronger binding
Sequence: GGTTGGTGTGGTTGG
| Modification | mean fluorescence intensity |
| --- | --- |
| 2'F-ANA at 1 2 3 4 5 6 8 10 12 13 14 | 49.3 a.u. |
| 2'F-ANA at 3 4 5 8 9 10 12 14 | 59.3 a.u. |
| 2'F-ANA at 1 5 8 10 11 14 15 | 65.1 a.u. |
| 2'F-ANA at 1 3 4 6 7 8 11 13 14 15 | 70.9 a.u. |
| 2'F-ANA at 2 3 7 8 9 11 14 | 440 a.u. |
| 2'F-ANA at 3 6 7 12 13 15 | 1190 a.u. |
| 2'F-ANA at 3 4 5 6 11 15 | 74.2 a.u. |
| 2'F-ANA at 3 5 6 10 11 12 13 14 15 | 75.3 a.u. |
| 2'F-ANA at 3 4 6 7 8 11 12 13 14 15 | 298 a.u. |
| 2'F-ANA at 7 9 10 11 12 15 | 194 a.u. |
| 2'F-ANA at 1 5 7 9 13 | 48.4 a.u. |
| 2'F-ANA at 1 6 7 8 10 11 13 15 | 53.4 a.u. |
| 2'F-ANA at 1 8 9 14 | 130 a.u. |
| 2'F-ANA at 2 6 10 12 14 15 | 119 a.u. |
| 2'F-ANA at 3 4 5 6 8 9 11 14 15 | 50.6 a.u. |
| 2'F-ANA at 3 4 5 6 7 8 10 11 14 | 47.8 a.u. |
| 2'F-ANA at 2 3 5 7 9 10 11 13 | 54.7 a.u. |

Block 4
Target: RNA binding protein fox-1 homolog 2, RRM domain, GST-SBP tag (RBFOX2, Homo sapiens, UniProt O43251-10, residues 100-194)
Method: RNA Bind-n-Seq
Molecule type: RNA
Medium: in vitro
Tested at: 365 nM
Notes: natural RNA segment, single round, ends assumed
Baseline: no-protein control
Reading: higher = stronger binding
Target sequence (chain): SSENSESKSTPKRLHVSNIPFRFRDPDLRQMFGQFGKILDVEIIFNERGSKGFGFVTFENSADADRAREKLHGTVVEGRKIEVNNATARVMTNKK
| Sequence | RBNS enrichment (R) |
| --- | --- |
| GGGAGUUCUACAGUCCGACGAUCUUAAUACUACAAAACUAGGAAAAUCAGAACUCAUGGCCAUUUCCUGCCCUCCUCCAACUUGUUAAAACAUGUUUAUUCUAAAGUUCGAAUGGAUAAAUUUGAGUAUAAAGUGGAAUUCUCGGGUGCCAA | 0.404 |
| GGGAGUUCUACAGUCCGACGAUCCCAUGUCUGGGUUCUCCAUGCCCAUCAGUCUCUGCAGUUUCUCUACCUGCCCCCAGAGCUGAGGCCAUCUGCAAGCCCCUGCCCAUGGCCCAAUGGGGAGCCUCCAGCCAUGGAAUUCUCGGGUGCCAA | 0.361 |
| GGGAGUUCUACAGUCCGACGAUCACCCUCGUGCUAGGCGAUUCGUGUUACUAUACAAAACCGCAGAAGGAAUUGGGCCACCUGUGGCAUCAAGACUGCAACUUGACAAUCACGGUUUGCUGAUCUCAAACGGGUGGAAUUCUCGGGUGCCAA | 0.257 |
| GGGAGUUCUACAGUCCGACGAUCAAUGACUGGCAGACAAUAUAUGCAUGGACCUUGAUAUGGGUGGAUAGAUUAAGGUUGAACCUUAGACACAAUGUGUGUUGUUAGUUGUAGAGCAGCCAUAUGUGCCAUGGUGGAAUUCUCGGGUGCCAA | 2.03 |
| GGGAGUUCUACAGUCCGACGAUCCCAACUUUCUAGUCACGCUGUUCUGUAUUCAGUCAGCCCACAAGAAUAUGCAAACUCCAUCUCAAAACUACUGUCUUUCACCUUCCCAAAUCUCUAUCCUCGUGUGCUUCUGGAAUUCUCGGGUGCCAA | 0.867 |
| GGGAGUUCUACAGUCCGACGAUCCACACCCGCACCAUGUACUCCCAGGAACCUCCCACCUCUAUACCACCCAUUAAGUGGCUGCUGACUUAAAUGUGCUGGAACCAGCUGCUGAAGGUGGGGCCUAGGGAGGGUGGAAUUCUCGGGUGCCAA | 0.905 |
| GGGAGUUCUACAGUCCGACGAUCCCUACUGCCUCUCCAGCACUUCUCUCUUCAAGCGGCGACCCCCUACCCUCCCAGCGAGUUGCGCUGGGAGACGCUGGCGCCAGGGCCUGCCGGCGCGGGGAGGAAAGCAAUGGAAUUCUCGGGUGCCAA | 0.446 |
| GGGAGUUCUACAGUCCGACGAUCUUACAUCUGGGAUACAGUCUAACUCAUCUGAUUUAAUAUGCAUUUAAAAAAAUGCCAUAACUAUUAAACACCUUGUUUACAGACAGAUGAAAUAAAUUUAUUCCAACCAAUGGAAUUCUCGGGUGCCAA | 0.282 |
| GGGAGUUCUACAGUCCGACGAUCUAUUUUUGCAGGCAAUCUUUUCCAUGGAGGGCAGGGUAUCCAUUCUUUACCAUGGGUGUACCUGCUUAGGUUAAAAAUCAUACCAAGGCCUCAUACUUCCAGGUUUCAUGUGGAAUUCUCGGGUGCCAA | 0.329 |

A few entries again (block 3):
| Modification | mean fluorescence intensity |
| --- | --- |
| 2'F-ANA at 1 5 8 10 11 14 15 | 65.1 a.u. |
| 2'F-ANA at 3 4 5 8 9 10 12 14 | 59.3 a.u. |
| 2'F-ANA at 2 6 10 12 14 15 | 119 a.u. |
| 2'F-ANA at 1 8 9 14 | 130 a.u. |
| 2'F-ANA at 1 5 7 9 13 | 48.4 a.u. |
| 2'F-ANA at 1 3 4 6 7 8 11 13 14 15 | 70.9 a.u. |
| 2'F-ANA at 3 6 7 12 13 15 | 1190 a.u. |
| 2'F-ANA at 2 3 7 8 9 11 14 | 440 a.u. |
